Measurements gathered from unrelated publications.
“And” joins repeats or separate records; there may be more than shown. Numbers after ± are the reported error.

For CC1=CC(C)=[N+]2C1=C(CCCC(=O)NCCCC[C@H](NC(=O)N[C@@H](CCC(=O)O)C(=O)O)C(=O)O)c1c(C)cc(C)n1[B-]2(F)F, “fluorescence quantum yield” read 81 ± 5% (acetonitrile/water).
Under “fluorescence quantum yield”, NCCC(=O)N1Cc2ccccc2-c2c(nnn2-c2cn(C3OC(CO)C(O)C3O)c(=O)[nH]c2=O)-c2ccccc21 (mixture of isomers) is recorded as 0.013 (methanol; baseline: quinine sulfate).
COCCOCCOCCOCCOCCOCCOCCOCCC(=O)NCCCc1cc2cc3nc(cc4[nH]c(cc5nc(c(OC)c1[nH]2)C(=O)C5(C)C)cc4CCc1ccc(C(=O)O)cc1)CC3(C)C — result for “fluorescence quantum yield”: 0.19 (DMF; room temperature).
CC1=CC(C)=[N+]2C1=C(c1ccc(C[P+](c3ccccc3)(C3CCCCC3)C3CCCCC3)cc1)c1c(C)cc(C)n1[B-]2(F)F — result for “fluorescence quantum yield”: 0.67 (PBS; 10 µM, pH 7.4, 298 K, with: fluorescein standard).
[C-]#[O+].[C-]#[O+].[C-]#[O+].[C-]#[O+].[C-]#[O+].[C-]#[O+].[Cl-].[Cl-].[Re+].[Re+].c1cnc(-c2ncccn2)nc1: “fluorescence quantum yield” 0.0143 and 0.014 (10% DMSO; baseline: quinine sulfate).
Nc1nc(-n2nnc3c2CCC2C(CO)C2CC3)nc2c1ncn2C1OC(CO)C(O)C1O (mixture of isomers): “fluorescence quantum yield” 0.02 (methanol; baseline: quinine sulfate).
For COc1cc2oc(=O)cc(CO)c2cc1OC, “fluorescence quantum yield” read 85.3 ± 0.6% (PBS/DMSO 90:10 v/v; about 1 µM, pH 8.0).
O=c1[nH]c(=O)n(C2OC(CO)C(O)C2O)cc1-n1nnc2c1CCC1C(CO)C1CC2 (mixture of isomers) — result for “fluorescence quantum yield”: 0.011 (methanol; baseline: quinine sulfate).
COCCOCCOc1ccc([P+](Cc2ccc(C3=C4C(C)=CC(C)=[N+]4[B-](F)(F)n4c(C)cc(C)c43)cc2)(c2ccc(OCCOCCOC)cc2)c2ccc(OCCOCCOC)cc2)cc1 — result for “fluorescence quantum yield”: 0.62 (PBS; 10 µM, pH 7.4, 298 K, with: fluorescein standard).
Under “fluorescence quantum yield”, Nc1ncnc2c1nc(-n1nnc3c1CCC1C(CO)C1CC3)n2C1OC(CO)C(O)C1O (mixture of isomers) is recorded as 0.6%.
CCN(CC)C(=S)c1ccc(-c2c3ccc(=[N+](C)C)cc-3sc3cc4c(cc23)C(C)(C)CCN4C)s1: “fluorescence quantum yield” 0.07 ± 0.01 (methanol; with: excitation 532 nm).
For COCCOCCOCCOCCOCCOCCOCCOCCOCCOCCOCCOCCOCCOCCOCCOCCOCCOCCOCCOCCOCCOCCNC(=O)CCC1(Cc2ccccc2)c2ccccc2-c2ccc(-c3sc(-c4c5c(c(-c6sc(-c7ccc8c(c7)C(CCC(=O)NCCOCCOCCOCCOCCOCCOCCOCCOCCOCCOCCOCCOCCOCCOCCOCCOCCOCCOCCOCCOCCOCCOC)(Cc7ccccc7)c7ccccc7-8)c7c6OCCO7)c6nsnc46)N=S=N5)c4c3OCCO4)cc21 (centres unmarked), “fluorescence quantum yield” read 0.98% (aqueous solution; baseline: IR-26 in 1,2-dichloroethane).
For COc1cc(OC)cc(C2=C3C(C)=C(I)C(/C=C/c4cccs4)=[N+]3[B-](F)(F)n3c(/C=C/c4cccs4)c(I)c(C)c32)c1, “fluorescence quantum yield” read 0.01 (DMSO; baseline: methylene blue).
NCCC(=O)N1Cc2ccccc2-c2c(nnn2-c2nc(N)c3ncn(C4OC(CO)C(O)C4O)c3n2)-c2ccccc21 (mixture of isomers): “fluorescence quantum yield” 10.6%.
Under “fluorescence quantum yield”, C[Si](C)(C)CCOC(=O)CCC1(Cc2ccccc2)c2ccccc2-c2ccc(-c3sc(-c4c5c(c(-c6sc(-c7ccc8c(c7)C(CCC(=O)OCC[Si](C)(C)C)(Cc7ccccc7)c7ccccc7-8)c7c6OCCO7)c6nsnc46)N=S=N5)c4c3OCCO4)cc21 (centres unmarked) is recorded as 15.2% (dichloromethane; baseline: IR-26).
Under “fluorescence quantum yield”, COc1ccc(/C=C/c2ccc(-c3ccc(C)cn3)nc2)cc1 is recorded as 0.37 (DMF; with: quinine bisulfate reference).
CCn1cc(/C=C/c2sc3ccccc3[n+]2CC)c2ccccc21: “fluorescence quantum yield” 0.009 (DMSO; baseline: fluorescein).
Under “fluorescence quantum yield”, CN1CCC(C)(C)c2cc3c(-c4ccc(C(=S)N5CCCCC5)s4)c4ccc(=[N+](C)C)cc-4sc3cc21 is recorded as 0.07 ± 0.01 (methanol; with: excitation 532 nm).
COc1ccc2cc(-c3ccc(-c4ccc(C)cn4)nc3)oc2c1: “fluorescence quantum yield” 0.82 (DMSO; with: quinine bisulfate reference).
For CCCCN1C(=O)c2cccc3c(NCCCCCN4CCOCC4)ccc(c23)C1=O, “fluorescence quantum yield” read 0.27 (water; pH 6; baseline: fluorescein/0.1 N NaOH).
COc1cc(OC)cc(C2=C3C(C)=C(I)C(C)=[N+]3[B-](F)(F)n3c(/C=C/c4c[nH]c5ccccc45)c(I)c(C)c32)c1 — result for “fluorescence quantum yield”: 0.19 (dichloromethane; baseline: methylene blue).
For COCCOCCOCCOCCC(=O)NCc1cc(CNC(=O)CCOCCOCCOCCOC)cc(-c2cc3cc4nc(c(-c5ccc(CCC(=O)O)cc5)c5[nH]c(cc6nc(c(OC)c2[nH]3)CC6(C)C)cc5-c2cc(CNC(=O)CCOCCOCCOCCOC)cc(CNC(=O)CCOCCOCCOCCOC)c2)CC4(C)C)c1, “fluorescence quantum yield” read 0.16 (DMF; room temperature).
CCn1cc(/C=C/c2ccc3ccccc3[n+]2CC)c2ccccc21: “fluorescence quantum yield” 0.037 (methanol; baseline: fluorescein).
Under “fluorescence quantum yield”, CC1=CC(C)=[N+]2C1=C(c1ccc(C[P+](c3ccccc3)(c3ccccc3)C3CCCCC3)cc1)c1c(C)cc(C)n1[B-]2(F)F is recorded as 0.62 (PBS; 10 µM, pH 7.4, 298 K, with: fluorescein standard).
For CCOC(=O)c1[nH]c(C)c(/C=C/c2c(I)c(C)c3n2[B-](F)(F)[N+]2=C(C)C(I)=C(C)C2=C3c2cc(OC)cc(OC)c2)c1C, “fluorescence quantum yield” read 0.23 (DMSO; baseline: methylene blue).
For COc1cc(/C=C2\SC(=S)NC2=O)cc(OC)c1O, “fluorescence quantum yield” read 0.11% (PBS; free ligand).
COc1cc(OC)cc(C2=C3C(C)=C(I)C(C)=[N+]3[B-](F)(F)n3c(/C=C/c4cccs4)c(I)c(C)c32)c1 — result for “fluorescence quantum yield”: 0.3 (THF; baseline: methylene blue).
For COC(=O)c1ccc(CCc2cc3cc4nc(c(OC)c5[nH]c(cc6nc(cc2[nH]3)CC6(C)C)cc5CCCNC(=O)OC(C)(C)C)C(=O)C4(C)C)cc1, “fluorescence quantum yield” read 0.2 (DMF; room temperature).
COc1cc(OC)cc(C2=C3C(C)=C(I)C(/C=C/c4c[nH]c5ccc([N+](=O)[O-])cc45)=[N+]3[B-](F)(F)n3c(/C=C/c4c[nH]c5ccc([N+](=O)[O-])cc45)c(I)c(C)c32)c1: “fluorescence quantum yield” 0.02 (DMSO; baseline: methylene blue).
CC1=CC(C)=[N+]2C1=C(CCCC(=O)NCCCCCC(=O)NCCCCCC(=O)NCCCC[C@H](NC(=O)N[C@@H](CCC(=O)O)C(=O)O)C(=O)O)c1c(C)cc(C)n1[B-]2(F)F — result for “fluorescence quantum yield”: 81 ± 5% (acetonitrile/water).
For CCOC(=O)c1[nH]c(C)c(/C=C/C2=[N+]3C(=C(c4cc(OC)cc(OC)c4)c4c(C)c(I)c(/C=C/c5c(C)[nH]c(C(=O)OCC)c5C)n4[B-]3(F)F)C(C)=C2I)c1C, “fluorescence quantum yield” read 0.07 (DMSO; baseline: methylene blue).
CC1=CC(C)=[N+]2C1=C(CCCC(=O)O)c1c(C)cc(C)n1[B-]2(F)F: “fluorescence quantum yield” 75 ± 5% (acetonitrile/water).

For quick reference, copied from above:
[C-]#[O+].[C-]#[O+].[C-]#[O+].[C-]#[O+].[C-]#[O+].[C-]#[O+].[Cl-].[Cl-].[Re+].[Re+].c1cnc(-c2ncccn2)nc1: “fluorescence quantum yield” 0.0143 and 0.014 (10% DMSO; baseline: quinine sulfate).
Nc1nc(-n2nnc3c2CCC2C(CO)C2CC3)nc2c1ncn2C1OC(CO)C(O)C1O (mixture of isomers): “fluorescence quantum yield” 0.02 (methanol; baseline: quinine sulfate).
